Results of several laboratories.
Each line is one published result; not all experiments were run side by side. ± marks the error that the study gave.

| Structure (SMILES) | assay | test system | setting | quantity | value |
| --- | --- | --- | --- | --- | --- |
| CC[C@H](C)[C@H](NC(=O)[C@H](CC(C)C)NC(=O)[C@H](Cc1c[nH]c2ccccc12)NC(=O)[C@H](C)NC(=O)[C@@H](NC(=O)[C@H](Cc1ccccc1)NC(=O)[C@H](CC(=O)O)NC(=O)[C@H](CCCNC(=N)N)NC(=O)[C@H](C)NC(=O)[C@H](C)NC(=O)[C@H](CC(C)C)NC(=O)[C@H](C)NC(=O)[C@H](CC(=O)O)NC(=O)[C@H](CC(C)C)NC(=O)[C@@H](NC(=O)[C@@H](NC(=O)[C@H](C)NC(=O)[C@H](CC(C)C)NC(=O)[C@H](CCC(=O)O)NC(=O)[C@H](CO)NC(=O)[C@H](CO)NC(=O)[C@H](Cc1ccccc1)NC(=O)[C@@H](NC(=O)CNC(=O)[C@H](CCC(=O)O)NC(=O)CNC(=O)[C@@H](N)Cc1cnc[nH]1)[C@@H](C)O)[C@@H](C)O)[C@@H](C)CC)[C@@H](C)CC)C(=O)N[C@@H](C)C(=O)N[C@H](C(=O)N[C@@H](CCCCN)C(=O)N[C@H](C(=O)N[C@H](C(=O)N[C@@H](CC(=O)O)C(=O)N[C@@H](CCCCN)C(=O)N[C@@H](CCCCN)C(=O)N[C@@H](CCCCN)C(=O)N[C@@H](CCCCN)C(=O)N[C@@H](CCCCN)C(=O)N[C@@H](CCCCN)C(N)=O)[C@@H](C)O)[C@@H](C)CC)[C@@H](C)O | – | healthy human subjects, plasma | intravenous infusion, 1 mg glepaglutide | clearance | 5.72 L/h |
| CC#CC(=O)N1CCC[C@H]1c1nc(-c2ccc(C(=O)Nc3ccccn3)cc2)c2c(N)nccn12 | – | human, normal hepatic function | oral, 50 mg | clearance | 247 L/h |
| NC(=S)NN=Cc1ncccc1N | – | human, plasma | intravenous, 90 mg, steady state | clearance | 34.5 ± 13.2 L/h |
| CC(C)C[C@H](NC(=O)[C@H](CCc1ccccc1)NC(=O)CN1CCOCC1)C(=O)N[C@@H](Cc1ccccc1)C(=O)N[C@@H](CC(C)C)C(=O)[C@@]1(C)CO1 | – | human patients, plasma | intravenous infusion 10 min, 27 mg/m^2, day 16 of cycle 1, KRd regimen | clearance | 98.8 ± 16.1 L/h |
| CNCc1ccc(-c2[nH]c3cc(F)cc4c3c2CCNC4=O)cc1 | – | human cancer patients, plasma | intravenous, 4 mg/m2, day 1, added: temozolomide 100 | clearance | 32 L/h |
| O=C(/C=C/c1cccc(S(=O)(=O)Nc2ccccc2)c1)NO | – | human severe liver dysfunction, plasma | intravenous, 400 mg/m^2, 30 min infusion, cycle 1 day -7 | clearance | 444 mL/min/m² |
| Cc1ccc(NC(=O)c2ccc(CN3CCNCC3)cc2)cc1Nc1nccc(-c2cccnc2)n1 | – | human patients | oral, 400 mg of imatinib, first dose, day 1 of cycle 1 | clearance | 66.6 L/h |
| C[C@H](Cn1cnc2c(N)ncnc21)OCP(=O)(O)O | population PK model, refers to: tenofovir | human, HIV patients, plasma | oral, tenofovir alafenamide dosed, added: P-gp inhibitors carvedilol or sertraline | clearance reduction | 12% |
